Measurements from different studies.
Parts stem from different laboratories: compare values within a part only. Positions count from the first letter of the parent shown.

Series 1
Target: RNA binding protein fox-1 homolog 2, RRM domain, GST-SBP tag (RBFOX2, Homo sapiens, UniProt O43251-10, residues 100-194)
Method: RNA Bind-n-Seq
Molecule type: RNA
Matrix: in vitro
Tested at: 365 nM
Setting: natural RNA segment, single round, ends assumed
Relative to: no-protein control
Reading: higher = stronger binding
Endpoint: RBNS enrichment (R)
Constant ends, left off below: GGGAGUUCUACAGUCCGACGAUC … UGGAAUUCUCGGGUGCCAA
Construct (chain): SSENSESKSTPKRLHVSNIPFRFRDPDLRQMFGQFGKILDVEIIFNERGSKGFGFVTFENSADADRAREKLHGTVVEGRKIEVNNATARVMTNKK
UAUUCCCUGAGAUUACAGAAGUACCCAGAAGUGUCUGGGAUCCCUGUCACAUCUGUGUCAUGUUGUUAUUUGAAGCAUCAGACUUUAUUACUAUGCUAGGUCCUCACUAC: 0.447
CUCGUGUACAUGGUACUUCUUUCUGCUACAGCCGCCAAGUCUAGAGUGUUUACACUGGUUGAUGCUUACACAGCCUGAACUCAGUGCCUCAAACUCCUCUGUGACCAGUU: 0.22
AAACAAACGAAUGAAUGAACAGACACACACAAUGUUCCAAGUUCCCCUAAAAUAUGACCCACUUGUUCUGGGUCUACGCAGAAAAGAGACGCAAAGUGUCCAAAAGGAAC: 0.429
UGCUAUGACUUUGAAAUUCACAGAAAGAAAUAACAGUUUAGAUUAGGUCUUCAGGUAUUCAGGAUAGAGAUAAUCUCCUGAAAAACCUGAAUUUCAGAGAUUCUUAGACU: 0.339
UGUAAGCCAGGCAUGGAGGGCUCCUGCCCUUCUGCUGAGCCACAGCCCAUUGCAGCACUGUGCUGGCCAGACUUCAGCUGCCUUGGGAACUGAAGCCCUGCCACUGUUGC: 0.349
AGUUCAUAACCAGCUUCAUAUUUUAAAGGCUUCAGGUUUGAAAUUAAGUCAACUGCAUGCAGCUUUGCUGAUAAAUGAAUAAUUCUCUUUGAUGCCAUUUAUGAGAAAAG: 2.52
CCUCCCAAAGUGUUGGGAUUACAGGCAUGAGCCACCACGCCAGCCAUUUUCUCUUUCUAAGAAGAGCAACCUCAGCCGGAGUGAGUUUUUUCUGACUUUGCAGCUGAGUC: 0.195
UUUGAGAUUUGUAAAUUGUAUAUAACCAUCUUAAGUUCUGGUCAGUGUGGCGGGCUCAGGGGCUCCUGCUGAGCAAACCGACUCAUGCCCGCAAACCUGUGAACUUUCGC: 0.315
AGUGUGGUGGGAUGGCUGUCUUCUCUCUCCUUGUUACCUCCCUAGGAAAGAAGGGGUUGCUUUAUGGAUAAGCCUGUAGAAUCGGCUGCUUCCUAUGACUCCCUGGCUGC: 0.285
UCAUACACCUCACCUGCCUUGGCAAGCCUAUUUUAGUGAUAUGGCAGCACGGAUAUAACACUAUGCAUUAAAAGCACUUUUUGUAAUAAGUUUAAUAUCCUAAAAGGAAU: 0.764
UUAAAACAUUUAAAACACAAUGUUUUAAAUGUGGACAGAACUGUGUAAACCACAUAAUUUCUGUACAUCCCAAAGGAUGAGAAGUGUGACCUUCAAGAAAAUGGAAAUAU: 0.287
UACAGAAUGAAUGGAGACUGGGUUCCUGAGAAAAGCUUUGAACACACGGGACUACAGAUGGUGCCCUCUCAGGAGUUUUGGGGGAGAAUAGGAGUUACCCAUCAGGUUUC: 2.12

Series 2
Target: CCNE1, cyclin fold, Cln2 fusion (human)
Method: yeast growth competition, sequencing
Matrix: yeast
Setting: weak parent motif
Relative to: not given
Reading: higher = stronger binding
Endpoint: normalised enrichment score
Parent: ORC1 docking peptide (human); PRARKRLELGNLG
E8M: 0.442
R2G: -0.206
L7V: -0.677
E8L: 1.29
N11C: 1.11
R2L: 0.115
R6V: 0.0758
L12H: 0.555
G10T: -0.297
L12W: 1.13

Series 3
Target: Prothrombin, mature alpha-thrombin (F2, Homo sapiens, UniProt P00734)
Method: aptamer microarray, sandwich
Molecule type: DNA with 2'F-ANA
Matrix: in vitro
Tested at: 200 nM
Setting: whole 15-mer aptamer, many near background
Added: Cy3 exosite-II aptamer, 400 nM
Reading: higher = stronger binding
Endpoint: mean fluorescence intensity
Oligonucleotide: GGTTGGTGTGGTTGG
2'F-ANA at 4 5 7 10 11 12 13 14: 42.7 a.u.
2'F-ANA at 2 4 6 9 10 11 12: 104 a.u.
2'F-ANA at 1 2 3 5 7 8 9: 81.6 a.u.
2'F-ANA at 1 2 3 5 6 7 10 11 15: 173 a.u.
2'F-ANA at 2 4 5 7 9 10 12: 49.9 a.u.
2'F-ANA at 3 4 10 11 12 13 14 15: 181 a.u.
2'F-ANA at 2 3 6 7 11 12 14 15: 419 a.u.
2'F-ANA at 1 4 5 7 8 9 12 13 15: 73.6 a.u.
2'F-ANA at 1 2 8 9 14 15: 57.9 a.u.
2'F-ANA at 1 2 5 8 10 11 12 14 15: 159 a.u.
2'F-ANA at 2 5 6 8 12 14: 49.3 a.u.
2'F-ANA at 4 5 6 7 8 9 13: 53.9 a.u.
2'F-ANA at 2 6 9 10 11: 111 a.u.
2'F-ANA at 3 4 5 6 9 10 11 13 14: 62.4 a.u.

Further values, each from its own experiment
PhoQ, residues 284 288 289 292 302 303 SLKLQV  fold induction (PhoP, residues 12 14 15 18 19 AQCLL (Escherichia coli, UniProt P23836); Sort-seq, refers to: YFP reporter; E. coli; PhoQ-PhoP variant library, added: 10 µM Mg2+; relative to: high Mg2+ state, higher = stronger signaling): 2.39

Repeated from above (series 3):
2'F-ANA at 1 4 5 7 8 9 12 13 15: 73.6 a.u.
2'F-ANA at 3 4 10 11 12 13 14 15: 181 a.u.
2'F-ANA at 4 5 6 7 8 9 13: 53.9 a.u.
2'F-ANA at 2 4 5 7 9 10 12: 49.9 a.u.
2'F-ANA at 2 4 6 9 10 11 12: 104 a.u.
